Measurements pooled from the literature.
Compare with care: the assays were run in different laboratories. Numbers after ± are the reported error.
CDK19: Cyclin-dependent kinase 19 (CDK19, Homo sapiens, UniProt Q9BWU1)
Sequence of UniProt Q9BWU1 (whole entry, looked up): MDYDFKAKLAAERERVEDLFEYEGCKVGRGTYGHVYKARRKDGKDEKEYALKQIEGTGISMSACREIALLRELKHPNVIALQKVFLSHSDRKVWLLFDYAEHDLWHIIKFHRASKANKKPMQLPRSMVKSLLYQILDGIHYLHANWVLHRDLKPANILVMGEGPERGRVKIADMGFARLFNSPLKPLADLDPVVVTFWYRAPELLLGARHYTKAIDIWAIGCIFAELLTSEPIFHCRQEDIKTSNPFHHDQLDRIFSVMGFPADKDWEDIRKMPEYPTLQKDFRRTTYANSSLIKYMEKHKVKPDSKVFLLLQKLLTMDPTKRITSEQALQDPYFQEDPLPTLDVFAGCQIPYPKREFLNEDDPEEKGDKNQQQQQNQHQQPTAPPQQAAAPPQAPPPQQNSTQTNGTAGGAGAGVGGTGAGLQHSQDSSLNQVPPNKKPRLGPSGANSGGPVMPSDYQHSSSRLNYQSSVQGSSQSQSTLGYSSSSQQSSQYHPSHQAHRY
CDK19 with cyclin C: Cyclin-dependent kinase 19, with cyclin C (CDK19, Homo sapiens, UniProt Q9BWU1)

Compound = O=C(NC1CCC1)c1ccc2nc(-c3cccc(NS(=O)(=O)NCCN4CCCCC4)c3)cn2c1; target = CDK19; assay = enzyme activity; conditions = 10 µM; quantity = remaining activity; result = 100%
Compound = O=C(CSc1nc2nccnc2c(=O)n1CCc1ccccc1)Nc1nccs1; target = CDK19 with cyclin C; assay = kinase activity, inhibitor; conditions = 10 µM; quantity = inhibition; result = 17%
Compound = C1=C/COCc2cc(ccc2OCCN2CCCC2)Nc2nccc(n2)-c2cccc(c2)COC/1; target = CDK19; conditions = concentration not given, gene name CDK11; quantity = percent of control; result = 97%
Compound = C#Cc1cnc(Nc2ccnc(CO)c2)nc1Nc1ccccc1S(C)(=O)=NC#N (centres unmarked); target = CDK19; assay = kinase activity, kinase selectivity panel; conditions = 1 µM; how to read = baseline: control; quantity = remaining activity; result = 98%
Compound = COc1ccc(F)cc1C(=O)NCc1ccc(-c2nn([C@@H](C)C(F)(F)F)c(N)c2C(N)=O)cc1; target = CDK19 with cyclin C; assay = kinase activity, inhibitor, HotSpot radiometric; conditions = 1000 nM, with: ATP at Km; quantity = remaining activity; result = 106 ± 5.4%
Compound = CNc1ncc2c(/C=C/C(=O)N3CCC(OC)CC3)nn(Cc3cccc(C(F)(F)F)c3)c2n1; target = CDK19 with cyclin C; assay = kinase activity, inhibitor; conditions = 1 µM; how to read = baseline: untreated control; quantity = remaining activity; result = 96%
Compound = Nc1ncnc2occ(-c3ccc(NC(=O)Nc4cc(C(F)(F)F)ccc4F)cc3)c12; target = CDK19; assay = enzyme activity, inhibitor; conditions = 20 µM; quantity = remaining activity; result = 1.1%
Compound = CN1CCN(C(=O)c2ccc3cc(CCNc4ncnc5ccc(C#N)cc45)ccc3c2)CC1; target = CDK19 with cyclin C; assay = TR-FRET kinetics; quantity = residence time; result = 2.65 min
Compound = CS(=O)(=O)Nc1cccc(-c2csc(NC(=O)CSc3nc4nccnc4c(=O)n3CCc3ccccc3)n2)c1; target = CDK19 with cyclin C; assay = kinase activity, inhibitor; conditions = 10 µM; quantity = inhibition; result = 1%
Compound = CN1CCN(C(=O)c2ccc3cc(CCNc4ccnc5ccc(C#N)cc45)ccc3c2)CC1; target = CDK19 with cyclin C; assay = TR-FRET kinetics; quantity = residence time; result = 6.13 min
Compound = C=CC(=O)N1CCC[C@@H](n2nc(-c3ccc(Oc4ccccc4)cc3)c3c(N)ncnc32)C1; target = CDK19 with cyclin C; assay = kinase activity, inhibitor, HotSpot radiometric; conditions = 100 nM, with: ATP 10 µM; quantity = remaining activity; result = 96.6 ± 0.7%

A few entries again:
Compound = O=C(CSc1nc2nccnc2c(=O)n1CCc1ccccc1)Nc1nccs1; target = CDK19 with cyclin C; assay = kinase activity, inhibitor; conditions = 10 µM; quantity = inhibition; result = 17%
Compound = CNc1ncc2c(/C=C/C(=O)N3CCC(OC)CC3)nn(Cc3cccc(C(F)(F)F)c3)c2n1; target = CDK19 with cyclin C; assay = kinase activity, inhibitor; conditions = 1 µM; how to read = baseline: untreated control; quantity = remaining activity; result = 96%
